Experimental data of several laboratories.
Each line is one published result; not all experiments were run side by side. Numbers after ± are the reported error.
MAL12: Alpha-glucosidase MAL12 (MAL12, Saccharomyces cerevisiae S288c, UniProt P53341)
Chain of UniProt P53341 (whole entry, looked up): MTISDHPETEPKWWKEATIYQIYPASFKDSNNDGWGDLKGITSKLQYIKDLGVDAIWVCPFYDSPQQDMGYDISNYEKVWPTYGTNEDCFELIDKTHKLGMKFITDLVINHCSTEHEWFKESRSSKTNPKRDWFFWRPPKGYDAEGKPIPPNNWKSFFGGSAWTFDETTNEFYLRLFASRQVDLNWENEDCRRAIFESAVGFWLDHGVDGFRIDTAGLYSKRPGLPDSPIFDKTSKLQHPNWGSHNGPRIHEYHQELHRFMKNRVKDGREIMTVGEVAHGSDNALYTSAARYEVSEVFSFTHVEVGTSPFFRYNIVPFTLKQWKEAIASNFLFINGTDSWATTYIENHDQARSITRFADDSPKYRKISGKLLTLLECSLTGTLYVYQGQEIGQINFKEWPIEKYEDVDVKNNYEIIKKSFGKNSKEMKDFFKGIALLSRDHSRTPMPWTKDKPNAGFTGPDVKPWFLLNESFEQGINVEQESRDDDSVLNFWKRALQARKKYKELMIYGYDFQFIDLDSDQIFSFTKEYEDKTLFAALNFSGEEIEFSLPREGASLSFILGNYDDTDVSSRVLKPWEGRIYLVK

COc1cccc(NC(=S)N/N=C/c2coc3cc(F)ccc3c2=O)c1
inhibition (MAL12; enzyme activity, inhibitor; 500 µM): 91.3%

COc1ccc(-c2coc3c(Cn4nc(C)cc4C)c(O)ccc3c2=O)cc1OC
inhibition (MAL12; inhibitor; 25 µM): < 0%

O=C1OC(c2ccccc2)=N/C1=C\c1cccc(O)c1
Vmax (MAL12; inhibitor, Lineweaver-Burk; 3200 ppm, together with: pNPG substrate): 0.036 mM/min

COc1cc(O)c2c(c1)oc(=O)c1c3cc(O)c(O)cc3oc21
ΔG (MAL12; fluorescence quenching; 307 K): -1.7 kcal/mol

Cc1oc2c(Cn3ccnc3)c(O)ccc2c(=O)c1C
inhibition (MAL12; inhibitor; 25 µM): 26.7%

Nc1ncnc2c1ncn2[C@@H]1O[C@H](C[C@@H](N)CC[C@H](N)C(=O)O)[C@@H](O)[C@H]1O
viability (OCI-Ly1; 1 µM, 120 h): 118%

O=C1OC(c2ccccc2)=N/C1=C\c1ccc(O)cc1
Vmax (MAL12; inhibitor, Lineweaver-Burk; 1600 ppm, together with: pNPG substrate): 1.76 mM/min

O=c1ccc2ccc(O)c(Cn3cnc4ccccc43)c2o1
inhibition (MAL12; inhibitor; 25 µM): 13.3%

Cc1ccc(CNC(=S)N/N=C/c2coc3cc(F)ccc3c2=O)cc1
inhibition (MAL12; enzyme activity, inhibitor; 500 µM): 90.4%

O=C1OC(c2ccccc2)=N/C1=C\c1ccccc1O
Vmax (MAL12; inhibitor, Lineweaver-Burk; 1600 ppm, together with: pNPG substrate): 0.007 mM/min

CCCCCCCCCCCCCCNC(=O)/C=C/c1ccc(O)c(O)c1
remaining activity (MAL12; enzyme activity; 20 µM, together with: α-amylase present): 7.48 ± 6.85%

O=C(/C=C/C#Cc1cccc(NS(=O)(=O)c2ccccc2)c1)NO
viability (OCI-Ly1; 1 µM, 120 h): 32.1%

Excerpt of the above:
Cc1oc2c(Cn3ccnc3)c(O)ccc2c(=O)c1C
inhibition (MAL12; inhibitor; 25 µM): 26.7%

Nc1ncnc2c1ncn2[C@@H]1O[C@H](C[C@@H](N)CC[C@H](N)C(=O)O)[C@@H](O)[C@H]1O
viability (OCI-Ly1; 1 µM, 120 h): 118%
